Measurements from different studies.
Each numbered part is a random draw from the data of one study; scales do not carry over between parts. Positions count from the first letter of the parent shown.

Set 1 — technique: protein-binding microarray; form: double-stranded DNA, one strand shown; matrix: in vitro; concentration: 0.8 µM; notes: whole 60-bp probe, no competitor; reading: higher = stronger binding; all sequences stand within: … GTCTTGATTCGCTTGACGCTGCTG
Target: Centromere-binding protein 1, full length, N-terminal tag (CBF1, Saccharomyces cerevisiae, UniProt P17106, residues 1-351)
Sequence of UniProt P17106 (whole entry, looked up): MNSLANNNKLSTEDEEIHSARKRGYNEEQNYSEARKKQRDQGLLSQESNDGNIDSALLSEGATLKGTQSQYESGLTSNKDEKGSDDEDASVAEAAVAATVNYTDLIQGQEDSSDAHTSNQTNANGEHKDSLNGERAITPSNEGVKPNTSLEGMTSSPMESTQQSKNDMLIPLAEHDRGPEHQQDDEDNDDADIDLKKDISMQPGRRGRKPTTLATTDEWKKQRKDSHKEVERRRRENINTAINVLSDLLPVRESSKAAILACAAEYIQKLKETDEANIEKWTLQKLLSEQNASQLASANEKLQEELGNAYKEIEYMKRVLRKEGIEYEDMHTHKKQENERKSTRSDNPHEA
Sequence	fluorescence intensity
GAATCCTTGTTTGCTGGTGTCACTTGGCTCGACTAG	541 a.u.
GAATTAAATGAATCAGCTGAGACTTCCAGGGATTAG	667 a.u.
GAAGCAAGGATAATCCACATGCCGAAAATACGATAG	651 a.u.
CTATATAGCTGATAGCACGTTCTTTTTAAGTTGTTC	625 a.u.
GAATACATCCGTACACATGTGACGTTCGTTCAATAG	2540 a.u.
GAACGTTAAAACCAGAACGTGCACAATTTTTTTTAG	786 a.u.
GAATTCTGATCCAACTGATGCATCAGTTATAGCTAG	509 a.u.
CTAAAAAAGTATAATCACGTTAATCAAGGCTGCTTC	777 a.u.
CTAAAGAGAGGATGCCACGTTTTCCCGACGGCTTTC	524 a.u.
GAACAGCTTCCACTACACCTGAGACTATCTCTCTAG	563 a.u.

Set 2 — technique: RNA Bind-n-Seq; form: RNA; matrix: in vitro; concentration: not given; reference: input RNA pool; reading: higher = stronger binding
Target: RING finger protein unkempt homolog, zinc fingers 1-6, GST-SBP tag (UNK, Homo sapiens, UniProt Q9C0B0, residues 30-357)
Sequence of UniProt Q9C0B0 (30-357, looked up): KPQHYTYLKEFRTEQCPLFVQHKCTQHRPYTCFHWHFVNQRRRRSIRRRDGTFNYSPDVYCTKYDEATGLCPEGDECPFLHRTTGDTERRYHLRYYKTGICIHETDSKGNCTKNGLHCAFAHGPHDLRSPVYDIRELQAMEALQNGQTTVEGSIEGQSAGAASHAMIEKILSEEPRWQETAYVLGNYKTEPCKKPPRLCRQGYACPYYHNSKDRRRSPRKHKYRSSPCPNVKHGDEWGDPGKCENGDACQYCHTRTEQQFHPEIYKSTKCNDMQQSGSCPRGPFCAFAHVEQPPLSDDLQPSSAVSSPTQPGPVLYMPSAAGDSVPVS
Notes: RNA with constant flanks, human-mouse chimeric sites, ends assumed
All sequences stand within: GGGAGUUCUACAGUCCGACGAUC … CAACAGAGGAUUGAGCAUCA
Sequence	bound/input enrichment [ratio]
AAUUUCCGCAACUGUUUUGUAGCAAGACACAUCAGACUUACAGAGCACCUGGCCACAUUCUAGGUUUGUGUUAUUUCUCAGCUAUGGAUAUGAUCAAAUGAGAACACUGCUUAACUAAUG	0.159
AGAAUCUUGGGACUGUUUUACUUAAUUGGUCAUUGAUAGCUUAACAAACAUGGAGAUGAGAUUAGAAAUCUUGACAUCAACAGGUAUCAAGCAGAAAAAACCAUGGCCACGUGUCUCCUG	0.125
GCUCUUGGGAAUGUAAUCAGCGCCUUGGGGGACAAGAGCAAGAGAGCCACCCAUGUCCCUUACAGAGAUUCCAAGCUAACAAGACUAUUGCAGGAUUCCCUUGGGGGUAACAGCCAAACC	0.138
GCAAAGGAUGAUGAGGCAGCUGCAGUUGCCCUUUCCUCUCUCGUUCAUGCUUUGGAUGAGUUAAACAUGGUCGCCAUCGUCCGAUAUGCUUAUGACAAAAGAUCUAAUCCUCAAGUUGGU	0.196
CUGGCACUCUAUCAGAUAGAUUACUUUUUAAAUGUAGAUGUAAUUUUAAAAAUGAAUGGCUACUUUACACGUUUAACUAGGGUUUUACUAUAUAUGUGUACAUAUGUAUAUAUAUAUAUA	7.28
UAAAUUAGGGCUGCCGUCCGUUCUCACUCCCUGGGCUGCAGACAGCUAGAAGAUUUUAUCUAGCUUAUACAAGGCUGCUGGUGUUCCCUCUUUUUUUCCACGAGGGUGUUUUUGGCUGCA	0.637
AGUUCCAAACCACCAUCAGAAAUGAAGAUGAGAUUACCCAGACGAGCCAAAACAGCUGCGCUACAGAAAAGUAAACUUAACCUUGCAGAGUUCCUUAAUGAAGAUACAAGUUAAGAGAGC	0.408
GUGUCCUGCUUUCAACUAUCACUGAGGAGGCAUCUCUACUGUUCUGUUAAAAUCAGGACUGUAGCGCUGUGUCACCACAUGAGAGUUCAGAAGCAGCCUUUCUGUGGAGGGUGGGAAUGA	0.111

Set 3 — target: CCNB3, cyclin fold, Cln2 fusion (human); technique: yeast growth competition, sequencing; matrix: yeast; notes: weak parent motif; reference: not given; reading: higher = stronger binding
Starting sequence: ORC1 docking peptide (human); PRARKRLELGNLG; partner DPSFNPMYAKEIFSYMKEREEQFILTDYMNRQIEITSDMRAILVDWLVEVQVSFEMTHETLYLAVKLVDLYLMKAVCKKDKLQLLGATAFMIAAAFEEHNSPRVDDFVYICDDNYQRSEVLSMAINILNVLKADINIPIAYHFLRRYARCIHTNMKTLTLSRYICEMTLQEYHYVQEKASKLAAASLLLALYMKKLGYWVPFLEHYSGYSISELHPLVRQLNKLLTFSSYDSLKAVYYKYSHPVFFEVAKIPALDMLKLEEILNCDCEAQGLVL
Change	normalised enrichment score
SRARKRLELGNLG [P1S]	-0.266
PTARKRLELGNLG [R2T]	0.778
PRARKRLELQNLG [G10Q]	-0.379
PRARKRQELGNLG [L7Q]	0.149
PGARKRLELGNLG [R2G]	0.296

Mixed results
Molecule	target	test	test system	setting	how to read	quantity	result
PhoQ, residues 284 288 289 292 302 303 ASVMEA	PhoP, residues 12 14 15 18 19 VQGLL (Escherichia coli, UniProt P23836)	Sort-seq, item: YFP reporter	E. coli	PhoQ-PhoP variant library, added: 10 µM Mg2+	reference: high Mg2+ state, higher = stronger signaling	fold induction	18

For quick reference, copied from above (set 2):
Sequence	bound/input enrichment [ratio]
UAAAUUAGGGCUGCCGUCCGUUCUCACUCCCUGGGCUGCAGACAGCUAGAAGAUUUUAUCUAGCUUAUACAAGGCUGCUGGUGUUCCCUCUUUUUUUCCACGAGGGUGUUUUUGGCUGCA	0.637
GCUCUUGGGAAUGUAAUCAGCGCCUUGGGGGACAAGAGCAAGAGAGCCACCCAUGUCCCUUACAGAGAUUCCAAGCUAACAAGACUAUUGCAGGAUUCCCUUGGGGGUAACAGCCAAACC	0.138
